Results collected from several papers.
Lines come from different studies, so protocols differ. ± marks the error that the study gave.
Cell line: SK-OV-3

Structure (SMILES) = COc1ccc2nc(Cl)c(-c3nc4ccccc4[nH]3)cc2c1; effect on = cell growth or viability; technique = MTT; time = 48 h; IC50 = 23 µM
Structure (SMILES) = CC(C)(C)c1cc2c(O)c(c1)Cc1cc(C(C)(C)C)cc(c1OCC(=O)NCc1cccnc1)Cc1cc(C(C)(C)C)cc(c1O)Cc1cc(C(C)(C)C)cc(c1OCC(=O)NCc1cccnc1)COC2; effect on = cell growth or viability; technique = MTT; time = 72 h; IC50 = 5.8 µM
Structure (SMILES) = O=S(=O)([O-])[O-].[Cu+2].c1ccc(-c2nnc(-c3ccc4c(c3)OCO4)[nH]2)nc1; effect on = cell growth or viability; technique = MTT; time = 24 h; IC50 = 6.11 µM
Structure (SMILES) = Cc1cc2nc(-c3cc4cc5c(cc4nc3Cl)OCO5)[nH]c2cc1C; effect on = cell growth or viability; technique = MTT; time = 48 h; IC50 = > 100 µM
Structure (SMILES) = COc1ccc2cc([C@H](C)C(=O)[O][Pt-2]34([O]C(=O)[C@@H](C)c5ccc6cc(OC)ccc6c5)([NH2+][C@@H]5CCCC[C@H]5[NH2+]3)[O]C(=O)C(=O)[O]4)ccc2c1; effect on = cell growth; technique = MTT; time = 72 h; IC50 = 15.4 ± 0.4 µM
Structure (SMILES) = O=C(/C=C/c1ccc2c(c1)C(=O)N(CCCc1ccccc1)CC2)NO; effect on = cell growth; technique = SRB; time = 72 h; IC50 = 1.04 ± 0.38 µM
Structure (SMILES) = Clc1ccc2[nH]c(-c3cc4cc5c(cc4nc3Cl)OCO5)nc2c1; effect on = cell growth or viability; technique = MTT; time = 48 h; IC50 = > 100 µM
Structure (SMILES) = CC1(C)[C@@H](O)CC[C@]2(C)[C@H]3C(=O)C=C4[C@@H]5C[C@@](C)(C(=O)O)CC[C@]5(C)CC[C@@]4(C)[C@]3(C)CC[C@@H]12; effect on = cell growth or viability; technique = MTT; time = 48 h; IC50 = 98.5 µM
Structure (SMILES) = CCC(=O)N1CCC(CCCC(=O)N2CCN(c3nc(-c4cnc(N)nc4C(F)F)nc(N4CCOCC4)n3)CC2)CC1; effect on = Akt phosphorylation; action = inhibitor; technique = in-cell western; refers to = Akt pSer473; time = 1 h; IC50 = 0.04 µM
Structure (SMILES) = CCCCCCCCCCCCCCCCC1CC(=O)NCCCN(C)CCCCN(C)CCCN1C (centres unmarked); effect on = cell growth or viability; technique = neutral red; time = 48 h; IC50 = 2.2 µg/mL
Structure (SMILES) = Cc1ccc2nc(Cl)c(-c3nc4cc(F)ccc4[nH]3)cc2c1; effect on = cell growth or viability; technique = MTT; time = 48 h; IC50 = > 100 µM
Structure (SMILES) = COc1ccc(-c2nnc(-c3ccccn3)[nH]2)cc1OC.COc1ccc(-c2nnc(-c3ccccn3)[nH]2)cc1OC.[Cu+2].[O-][Cl+3]([O-])([O-])[O-].[O-][Cl+3]([O-])([O-])[O-]; effect on = cell growth or viability; technique = MTT; time = 24 h; IC50 = 86.9 µM
Structure (SMILES) = C=CCc1ccc(OCc2nnc(SCC(=O)Nc3ccccc3Cl)o2)c(OC)c1; effect on = cell growth or viability; technique = MTT; time = 72 h; IC50 = 15.7 µM
Structure (SMILES) = Cc1ccc2nc(Cl)c(-c3nc4cc(Cl)c(Cl)cc4[nH]3)cc2c1; effect on = cell growth or viability; technique = MTT; time = 48 h; IC50 = > 100 µM
Structure (SMILES) = COc1ccc2cc([C@H](C)C(=O)[O][Pt]([NH2])([NH2])([Cl])([Cl])[O]C(=O)[C@@H](C)c3ccc4cc(OC)ccc4c3)ccc2c1; effect on = cell growth; technique = MTT; time = 48 h; IC50 = 0.08 ± 0.01 µM
Structure (SMILES) = C=CCc1ccc(OCc2nnc(SCC(=O)Nc3cccc(Br)c3)o2)c(OC)c1; effect on = cell growth or viability; technique = MTT; time = 72 h; IC50 = 26.3 µM
Structure (SMILES) = O=C(Cc1ccc2ccccc2c1)N[C@H](Cc1ccccc1)C(=O)N[C@H](Cc1ccc(OP(=O)(O)O)cc1)C(=O)N[C@H](Cc1ccccc1)C(=O)N[C@H](Cc1ccc(OP(=O)(O)O)cc1)C(=O)O; effect on = cell growth or viability; technique = MTT; IC50 = > 483 µg/mL
Structure (SMILES) = C=CCc1ccc(OCc2nnc(SCC(=O)Nc3ccc(F)cc3F)o2)c(OC)c1; effect on = cell growth or viability; technique = MTT; time = 72 h; IC50 = 3.36 µM
Structure (SMILES) = Clc1nc2cc3c(cc2cc1-c1nc2cc(Br)ccc2[nH]1)OCO3; effect on = cell growth or viability; technique = MTT; time = 48 h; IC50 = > 100 µM
Structure (SMILES) = COc1ccc(CC2COC(=O)C2Cc2ccc3c(c2)OCO3)cc1OC (mixture of isomers); effect on = cytotoxicity; technique = MTT; time = 72 h; IC50 = 14.4 ± 0.34 µM

Repeated from above:
Structure (SMILES) = Cc1ccc2nc(Cl)c(-c3nc4cc(F)ccc4[nH]3)cc2c1; effect on = cell growth or viability; technique = MTT; time = 48 h; IC50 = > 100 µM
Structure (SMILES) = COc1ccc(-c2nnc(-c3ccccn3)[nH]2)cc1OC.COc1ccc(-c2nnc(-c3ccccn3)[nH]2)cc1OC.[Cu+2].[O-][Cl+3]([O-])([O-])[O-].[O-][Cl+3]([O-])([O-])[O-]; effect on = cell growth or viability; technique = MTT; time = 24 h; IC50 = 86.9 µM
Structure (SMILES) = C=CCc1ccc(OCc2nnc(SCC(=O)Nc3ccccc3Cl)o2)c(OC)c1; effect on = cell growth or viability; technique = MTT; time = 72 h; IC50 = 15.7 µM
